Published values from different studies.
Each numbered part is a random draw from the data of one study; scales do not carry over between parts. Changes are numbered by the printed parent chain.

Block 1 — technique: DHFR PCA, deep sequencing; medium: yeast; together with: (+)-ABA 0.032 µM; relative to: wild-type fitted maximum; direction: higher = stronger binding
Target: ABI1, truncated, D143A, DHFR fusion (Arabidopsis thaliana)
Setting: methotrexate growth selection, single substitutions
Parent: PYL1, truncated, DHFR fusion (Arabidopsis thaliana); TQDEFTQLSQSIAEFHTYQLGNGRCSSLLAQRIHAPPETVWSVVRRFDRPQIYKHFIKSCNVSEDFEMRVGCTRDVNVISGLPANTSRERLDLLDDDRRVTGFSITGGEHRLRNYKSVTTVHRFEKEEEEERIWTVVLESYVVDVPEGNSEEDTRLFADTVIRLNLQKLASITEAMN; partner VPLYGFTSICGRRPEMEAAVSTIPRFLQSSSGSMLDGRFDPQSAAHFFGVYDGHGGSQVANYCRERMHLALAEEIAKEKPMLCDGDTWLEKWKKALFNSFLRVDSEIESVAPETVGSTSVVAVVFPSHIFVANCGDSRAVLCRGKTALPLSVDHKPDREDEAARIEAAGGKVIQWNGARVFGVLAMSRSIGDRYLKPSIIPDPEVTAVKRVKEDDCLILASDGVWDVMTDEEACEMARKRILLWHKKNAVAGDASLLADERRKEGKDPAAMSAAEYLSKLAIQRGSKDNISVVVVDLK
For `M176E`, “relative binding score” read 4.27%.
`R111W`: “relative binding score” 1.15%.
Under “relative binding score”, `Q167H` is recorded as 7.27%.
For `T160L`, “relative binding score” read 6.13%.
Under “relative binding score”, `G23D` is recorded as 5.82%.
`I162D`: “relative binding score” 0.835%.
Under “relative binding score”, `R123I` is recorded as 2.7%.
`N177A`: “relative binding score” 39.9%.
Under “relative binding score”, `V78Q` is recorded as -0.741%.
For `Q7L`, “relative binding score” read 19%.
For `F56K`, “relative binding score” read -4.06%.
`V43I` — result for “relative binding score”: 38.6%.
Under “relative binding score”, `P37G` is recorded as -3.41%.
For `F56S`, “relative binding score” read -1.87%.
For `T106R`, “relative binding score” read 3.75%.
`R46F`: “relative binding score” -11.9%.
For `M176K`, “relative binding score” read 7.02%.

Block 2 — target: CCND2, cyclin fold, Cln2 fusion (human); technique: yeast growth competition, sequencing; medium: yeast; setting: weak parent motif; relative to: not given; direction: higher = stronger binding
Parent: RBL2 docking peptide (human); STTRRRLFVENDS; partner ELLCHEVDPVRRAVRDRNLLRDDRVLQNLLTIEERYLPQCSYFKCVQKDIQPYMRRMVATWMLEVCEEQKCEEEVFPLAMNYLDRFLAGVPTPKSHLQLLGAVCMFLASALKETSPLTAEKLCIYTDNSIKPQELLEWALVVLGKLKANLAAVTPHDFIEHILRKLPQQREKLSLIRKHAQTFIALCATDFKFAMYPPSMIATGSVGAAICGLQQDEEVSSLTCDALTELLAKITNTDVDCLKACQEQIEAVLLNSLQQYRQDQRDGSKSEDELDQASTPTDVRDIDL
`STTRRRLPVENDS [F8P]` — result for “normalised enrichment score”: 0.643.
`STTRRRLFVENDF [S13F]` — result for “normalised enrichment score”: 0.413.
`STTRRSLFVENDS [R6S]`: “normalised enrichment score” 0.201.
For `STTRRRKFVENDS [L7K]`, “normalised enrichment score” read 0.0634.
For `STTRRRLFTENDS [V9T]`, “normalised enrichment score” read 0.791.
`STTDRRLFVENDS [R4D]`: “normalised enrichment score” -0.517.
For `STQRRRLFVENDS [T3Q]`, “normalised enrichment score” read -0.0323.
`NTTRRRLFVENDS [S1N]`: “normalised enrichment score” 0.0671.
`STTRRRPFVENDS [L7P]` — result for “normalised enrichment score”: 0.221.
`PTTRRRLFVENDS [S1P]`: “normalised enrichment score” 0.311.
For `STTRRRLAVENDS [F8A]`, “normalised enrichment score” read -0.157.
For `STTRRRLFVENCS [D12C]`, “normalised enrichment score” read -0.0664.
`STTRQRLFVENDS [R5Q]` — result for “normalised enrichment score”: 0.397.
For `STTRRRLEVENDS [F8E]`, “normalised enrichment score” read 0.402.
`STTRRRLFVENDY [S13Y]` — result for “normalised enrichment score”: 0.329.
`STTRYRLFVENDS [R5Y]`: “normalised enrichment score” 0.187.
`STTRRTLFVENDS [R6T]`: “normalised enrichment score” 0.0284.
For `STTRRRLFVENLS [D12L]`, “normalised enrichment score” read -0.42.
`STTRRRLVVENDS [F8V]` — result for “normalised enrichment score”: -0.112.
`STTRFRLFVENDS [R5F]` — result for “normalised enrichment score”: -0.455.
For `STTRRRLFVRNDS [E10R]`, “normalised enrichment score” read 0.12.
`SWTRRRLFVENDS [T2W]` — result for “normalised enrichment score”: 0.063.
For `HTTRRRLFVENDS [S1H]`, “normalised enrichment score” read -0.0196.
For `STRRRRLFVENDS [T3R]`, “normalised enrichment score” read 0.0731.
For `STTRRPLFVENDS [R6P]`, “normalised enrichment score” read 0.0442.

Block 3 — technique: RNA Bind-n-Seq; molecule type: RNA; medium: in vitro; tested at: 365 nM; relative to: no-protein control; direction: higher = stronger binding
Target: RNA binding protein fox-1 homolog 2, RRM domain, GST-SBP tag (RBFOX2, Homo sapiens, UniProt O43251-10, residues 100-194)
Setting: natural RNA segment, single round, ends assumed
All sequences stand within: GGGAGUUCUACAGUCCGACGAUC … UGGAAUUCUCGGGUGCCAA
Residues (chain): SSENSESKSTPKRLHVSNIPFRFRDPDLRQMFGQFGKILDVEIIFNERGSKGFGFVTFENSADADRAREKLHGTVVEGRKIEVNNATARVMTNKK
Under “RBNS enrichment (R)”, `CCAGGCAUGUGGUGAGAAACUGCCUUAAUGUGUCUCCUCUGUUCUUGUCAACAGGAGGCUCAAGAUGUGAGAGGUGUGAGUCAGACGCCCGAGGAACUUACAGGAGGAGC` is recorded as 2.36.
Under “RBNS enrichment (R)”, `AAACCUGGAGGCAGGAACAUAGCAGAUUUAAGGGGUACCCAGCUGUGGAAGGUCAUUCCUGAGAAGUGGGGGCUUGUUUUAUGAAACCUUAAAGGCCAAACGGACUGUCC` is recorded as 0.642.
For `AUUUCCCCACCGCGUUGUGUCUGCAGCUUCUUUGCCAAUAUAGUAAUGCUUUUAGUAGAGUACUAGAUAGUAUCAGUUUUGGAUUCUUAUUGUUAUCACCUAUGUACAAU`, “RBNS enrichment (R)” read 1.01.
For `UCUGUGGGCUCGUAGUCCUCUGAAAGUGGUUGUUUUCCUAUGCACAGUGAGCUCAGAAAUAAAAACUCCAUUUUGAGACAUUCAGAAUGUCCCAACAUUACGACAACAUU`, “RBNS enrichment (R)” read 0.317.
`UUUUCUUUAUUAAAGUAUUCUUGUAAGACAGUUUUCUGUGUCAAGUAUUUGUGAAAUCAGAGCUGACAUGUAAGCUAUUCUUGUAAUAUCUCAUUAUUUUGAAAGAUUUA` — result for “RBNS enrichment (R)”: 0.529.
`UGAGCAGUGAAUGAUUCAGUGUUAAAUGUGAUGAAUACUGUAUUUUGUAUUGUUUCAAUUGCAUCUCCCAGAUAAUGUGAAAAUGGUCCAGGAGAAGGCCAAUUCCUAUA`: “RBNS enrichment (R)” 1.45.
`UUCGAUCUGCCUGUCCCUUUUUCCCCUGGGGUUUGACACACAGGCUCCUCUCAGCAUGAGGUGGAGCAGUGACCAGGUGGAGCAGUGACCAGGACGCCUCUGGCCCAGUG`: “RBNS enrichment (R)” 10.3.
`UCAGCUAGAGAAAGCACUGCCUCCAGUCAGAGCACAAGAGGUUGUUGAGAAAGAAACACUUUAAGGGCGGAAGGCUGGGUGGCUUCCCCGAGAACUAUGAUCUUCCUAUC` — result for “RBNS enrichment (R)”: 0.465.

Block 4 — technique: universal PBM; molecule type: double-stranded DNA, one strand shown; medium: in vitro; tested at: 600 nM; direction: higher = stronger binding
Target: Sal-like protein 4, full length isoform A (SALL4, Homo sapiens, UniProt Q9UJQ4, residues 1-1053)
Sequence of UniProt Q9UJQ4 (whole entry, looked up): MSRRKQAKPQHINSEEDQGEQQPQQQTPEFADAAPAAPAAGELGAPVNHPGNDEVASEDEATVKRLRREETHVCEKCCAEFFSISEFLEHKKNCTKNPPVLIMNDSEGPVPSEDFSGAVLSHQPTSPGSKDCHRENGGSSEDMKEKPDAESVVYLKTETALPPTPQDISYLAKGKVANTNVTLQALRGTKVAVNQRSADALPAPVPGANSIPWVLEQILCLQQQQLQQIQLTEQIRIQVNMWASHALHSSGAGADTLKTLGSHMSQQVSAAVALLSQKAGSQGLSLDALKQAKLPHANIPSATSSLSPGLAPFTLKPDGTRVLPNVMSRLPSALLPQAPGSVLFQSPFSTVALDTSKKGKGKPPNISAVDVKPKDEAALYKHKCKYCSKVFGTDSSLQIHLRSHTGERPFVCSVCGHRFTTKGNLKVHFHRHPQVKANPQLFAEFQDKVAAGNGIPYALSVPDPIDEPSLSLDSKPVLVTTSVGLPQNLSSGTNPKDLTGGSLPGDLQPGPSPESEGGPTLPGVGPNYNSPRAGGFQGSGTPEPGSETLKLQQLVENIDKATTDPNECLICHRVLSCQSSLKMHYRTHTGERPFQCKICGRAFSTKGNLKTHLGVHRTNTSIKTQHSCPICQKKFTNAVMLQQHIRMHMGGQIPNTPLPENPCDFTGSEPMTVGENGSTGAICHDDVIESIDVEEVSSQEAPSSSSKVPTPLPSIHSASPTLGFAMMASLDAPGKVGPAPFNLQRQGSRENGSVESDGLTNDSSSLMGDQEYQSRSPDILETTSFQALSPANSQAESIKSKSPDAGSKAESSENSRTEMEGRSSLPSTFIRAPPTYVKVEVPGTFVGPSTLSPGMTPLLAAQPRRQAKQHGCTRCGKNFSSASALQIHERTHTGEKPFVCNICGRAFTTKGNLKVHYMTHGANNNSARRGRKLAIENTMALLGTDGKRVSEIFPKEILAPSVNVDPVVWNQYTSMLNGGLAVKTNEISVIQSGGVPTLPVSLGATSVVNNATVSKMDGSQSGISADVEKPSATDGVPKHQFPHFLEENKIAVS
Setting: 8-mer, flanks averaged, mean of replicates
`ATGGGAAC` has an E-score of -0.00788.
`AACGGTTG` has an E-score of 0.0695.
For `CACGTCAC`, the E-score was 0.0315.
For `CTTGTTCA`, the E-score was 0.0526.
With `GGTCAACA` the E-score was 0.0198.
`CTCAGTGA` has an E-score of 0.0172.
`CTATGGGA` gave an E-score of 0.00581.
For `GGTTCAGA`, the E-score was -0.0817.
With `GGGCCCCC` the E-score was -0.473.
The E-score of `AGCTGGTC` is reported as -0.113.
`CCGAGCGA` has an E-score of -0.14.
With `GGTGAGCA` the E-score was -0.192.
The E-score of `ACTAACAA` is reported as 0.171.
`GGTGACAC` has an E-score of -0.22.
`CAGACGGG` has an E-score of -0.227.
`TCTACAGA` gave an E-score of 0.0308.
With `AGGCTAGG` the E-score was -0.254.
The E-score of `TAATAGAA` is reported as 0.375.
`GTCGCCTA` has an E-score of -0.237.
For `GAGGCAGA`, the E-score was -0.185.
For `CCATCGTA`, the E-score was 0.114.

Some of these lines once more (block 2):
`STTRRRLFVENDY [S13Y]` — result for “normalised enrichment score”: 0.329.
`STTRYRLFVENDS [R5Y]`: “normalised enrichment score” 0.187.
`STTRRTLFVENDS [R6T]`: “normalised enrichment score” 0.0284.
For `STTRRRLFVENLS [D12L]`, “normalised enrichment score” read -0.42.
`STTRRRLVVENDS [F8V]` — result for “normalised enrichment score”: -0.112.
